Results collected from several papers.
Compare with care: the assays were run in different laboratories. ± gives the spread as reported.

SMILES	cell line	assay	setting	IC50
COc1cc(C(=O)c2oc3ccccc3c2NC(=O)CO[N+](=O)[O-])cc(OC)c1OC	L1210	cell growth or viability	24 h	33.4 µM
O=C(O)C=Cc1cc(O)ccc1O	LAPC4	AR transcriptional activity, antagonist, PSA promoter luciferase	24 h	1.14 µM
CS(=O)(=O)N1CCN(Cc2cc3nc(-c4cccc5[nH]ncc45)nc(N4CCOCC4)c3s2)CC1	IGROV-1	AKT Ser473 phosphorylation, inhibitor, electrochemiluminescent immunoassay	2 h	0.018 ± 0.001 µM
CCN(CC)CC1CCN(c2ncc3ncnc(Nc4ccc(F)c(Cl)c4)c3n2)CC1	H3255 (EGFR L858R)	cell viability, Alamar Blue	120 h	0.02 ± 0.004 µM
COc1cc2oc3cc(O)c(OC)c(CC=C(C)C)c3c(=O)c2c(O)c1CC=C(C)C	H1L6.1c3	cell viability, MTT	–	> 100 µM
Cc1ccc(=O)n(-c2ccccc2)c1	HuT78	cell growth or viability	–	> 125 µM
CCCC[C@@H](C=O)NC(=O)[C@H](CC(C)C)NC(=O)OCc1ccccc1	primary chicken telencephalic neurons	Aβ38 secretion, MSD immunoassay	24 h	5 µM
COC(=O)c1c(-c2ccc(Br)cc2)c2n(c1C(=O)OC)CCn1cccc1-2	PANC-1	cell growth or viability, MTT	48 h	79.7 µM
C=CC(C)(O)Cc1cc2cc(-c3ccc(O)cc3O)c(=O)oc2cc1O (centres unmarked)	Hepa1c1c7	cell growth	–	> 100 µM
O=C1C(=Cc2ccccc2)CN(C(=O)C#CC(=O)N2CC(=Cc3ccccc3)C(=O)C(=Cc3ccccc3)C2)CC1=Cc1ccccc1	MOLT-4/C8 and CEM T-lymphocytes	cytotoxicity	–	2.43 µM
COc1ccc(C[C@H]2COC(=O)[C@@H]2Cc2ccc(OCC(=O)N3CCC(C(=O)NO)CC3)c(OC)c2)cc1OC	CCRF-CEM	cell growth or viability, CCK-8	48 h	> 5 µM
CCn1[c](=[Au-2][Cl])n(CC)c2ccccc21	RC-124 kidney epithelial	cell proliferation, crystal violet staining	96 h	4.7 ± 1.1 µM
CNC(=O)c1cc(Oc2ccc(NC(=O)Nc3ccc(Cl)c(C(F)(F)F)c3)cc2)ccn1	human Fibroblast	cell growth or viability, SRB	48 h	15.1 µM
COC(=O)c1c(-c2ccc(C)cc2)c2n(c1C(=O)OC)CCn1cccc1-2	PANC-1	cell growth or viability, MTT	48 h	70.4 µM
C=CCc1ccc(OCc2nn(CN3CCCC3)c(=S)o2)c(OC)c1	SK-OV-3	cell growth or viability, MTT	72 h	16.9 µM
COc1cc(/C=C/C(=O)CC(=O)/C=C/c2ccc(O)c(OC)c2)ccc1O	MGC-803	cell growth or viability, MTT	72 h	21.2 µM
O=C(O)c1cc(O)c2c(c1)C(=O)c1cccc(O)c1C2=O	MOLT-3	cell growth or viability, ATP luminescence	24 h	158 µM
COc1cccc2c1C(=O)c1c(O)c3c(c(O)c1C2=O)C[C@@](O)(C(=O)CO)C[C@@H]3O[C@H]1C[C@H](N)[C@@H](O)[C@H](C)O1	HCT-15/ADM2-2	cell growth, XTT	72 h	8.55 µg/mL
O=C(/C=C/c1ccc(CN2CCCCC2)c(O)c1)c1ccc(F)cc1	WRL68	cell growth or viability, MTT	72 h	27.7 µM
Cc1cc2c(cc1Cl)N(C(=O)Nc1ccc(Oc3cccnc3C)nc1)CC2	HEK293T ERR reporter line	cell viability, qHTS	–	26.6 µM
COc1cc(C(=O)c2sc3c(C)cccc3c2NC(=O)CO[N+](=O)[O-])cc(OC)c1OC	L1210	cell growth or viability	24 h	0.055 µM
Fc1cc(F)cc(-c2cc3ccccc3[nH]2)c1	HEK293 NF-κB luciferase reporter	reporter gene, measured: NF-κB	6 h, together with: TNFα	48.3 ± 1.5 µM
COC(=O)c1c(-c2ccc(O)c(OC)c2)c2n(c1C(=O)OC)CCn1cccc1-2	PANC-1	cell growth or viability, MTT	48 h	44 µM

For quick reference, copied from above:
SMILES	cell line	assay	setting	IC50
CCCC[C@@H](C=O)NC(=O)[C@H](CC(C)C)NC(=O)OCc1ccccc1	primary chicken telencephalic neurons	Aβ38 secretion, MSD immunoassay	24 h	5 µM
COC(=O)c1c(-c2ccc(Br)cc2)c2n(c1C(=O)OC)CCn1cccc1-2	PANC-1	cell growth or viability, MTT	48 h	79.7 µM
C=CC(C)(O)Cc1cc2cc(-c3ccc(O)cc3O)c(=O)oc2cc1O (centres unmarked)	Hepa1c1c7	cell growth	–	> 100 µM
